Assay results collected from several papers.
± marks the error that the study gave.

For `O=C(c1ccc(F)cc1)C1CCN(C2Cc3c(cccc3OCC[18F])CC2O)CC1` (single isomer, unassigned; (-)), the tissue uptake was 0.883 ± 0.068 %ID/g (Sprague-Dawley rat, male, kidney; intravenous, dose not given, 30 min).
`CN(C)c1ccc(C(=O)NCCCCN2CCN(c3ccccc3O[11CH3])CC2)cc1` gave a tissue uptake of 0.062 ± 0.012 %ID/g (male Sprague Dawley rat, muscle; iv, 5 min; relative to: untreated).
`O=C(O)CCCN1CCN2CCN(CC1)CC(=O)[O][Al]([18F])[O]C(=O)C2` gave a tissue uptake of 0.4 ± 0.1 %ID (Sprague-Dawley rat, renal pedicle ligation, kidney; 60 min).
The tissue uptake of `CCNc1cc2[o+]c3cc(NCC)c(C)cc3c(-c3ccccc3C(=O)OCCOCC[18F])c2cc1C` is reported as 1.3 %ID/g (rat, heart; 15 min).
`CCN(CC)c1ccc2c(-c3ccccc3C(=O)OCCOCC[18F])c3ccc(=[N+](CC)CC)cc-3oc2c1` gave a tissue uptake of 0.36 ± 0.04 %ID/g (rat, skin; 60 min).
`COc1cc2ccnc(Cc3ccc(O[11CH3])c(OC)c3)c2cc1OC` gave a tissue uptake of 0.104 ± 0.017 %ID/g (Sprague-Dawley rats, lung; intravenous, 0.5 h).
With `COc1ccc(NC(=O)Cn2c(=O)c3ccccc3n(CC(=O)Nc3cc([125I])c(OC)cc3OC)c2=O)cc1` the tissue uptake was 0.53 ± 0.09 %ID/g (Wistar rat (normal), thyroid; intravenous, 0.5 h).
For `CCN(CC)c1ccc2c(-c3ccccc3C(=O)OCCC[18F])c3ccc(=[N+](CC)CC)cc-3oc2c1`, the tissue uptake was 2.53 ± 0.67 %ID/g (rat, gut; dose not given, 60 min post injection).
